Results gathered from unrelated publications.
Parts stem from different laboratories: compare values within a part only. ± marks the error that the study gave.
Chain of UniProt A0A059WYP6 (whole entry, looked up): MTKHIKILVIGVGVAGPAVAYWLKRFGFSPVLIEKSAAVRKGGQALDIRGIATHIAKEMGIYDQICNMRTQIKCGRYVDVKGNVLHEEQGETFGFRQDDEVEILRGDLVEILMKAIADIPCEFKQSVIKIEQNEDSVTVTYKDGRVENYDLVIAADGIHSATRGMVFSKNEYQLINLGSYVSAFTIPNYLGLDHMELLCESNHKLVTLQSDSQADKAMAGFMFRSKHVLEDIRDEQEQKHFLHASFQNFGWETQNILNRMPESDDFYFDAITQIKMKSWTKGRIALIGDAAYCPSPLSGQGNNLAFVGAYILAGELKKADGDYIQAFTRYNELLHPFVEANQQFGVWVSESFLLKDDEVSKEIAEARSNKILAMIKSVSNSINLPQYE
Chain of UniProt P53350 (whole entry, looked up): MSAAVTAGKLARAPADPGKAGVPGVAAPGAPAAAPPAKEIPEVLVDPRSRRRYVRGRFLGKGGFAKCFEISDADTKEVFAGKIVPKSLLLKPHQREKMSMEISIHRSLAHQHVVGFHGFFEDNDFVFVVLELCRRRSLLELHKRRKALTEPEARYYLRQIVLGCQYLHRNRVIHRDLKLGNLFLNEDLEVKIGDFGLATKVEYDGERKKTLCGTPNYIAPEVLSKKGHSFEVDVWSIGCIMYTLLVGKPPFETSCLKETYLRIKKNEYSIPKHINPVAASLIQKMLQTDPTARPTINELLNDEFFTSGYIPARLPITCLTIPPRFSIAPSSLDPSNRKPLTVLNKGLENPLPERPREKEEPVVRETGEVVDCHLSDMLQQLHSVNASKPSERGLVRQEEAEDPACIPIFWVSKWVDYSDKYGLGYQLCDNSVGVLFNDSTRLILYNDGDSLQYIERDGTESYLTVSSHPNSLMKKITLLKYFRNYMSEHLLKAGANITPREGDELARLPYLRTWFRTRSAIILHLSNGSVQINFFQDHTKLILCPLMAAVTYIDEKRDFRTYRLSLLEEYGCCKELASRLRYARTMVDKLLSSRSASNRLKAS

Block 1 — cell line: Jurkat; time: 72 h
| Compound | CC50 |
| --- | --- |
| O=C(NCc1ccc(C(F)(F)F)cc1)c1cn(Cc2ccc(Cl)cc2)c2ccc(Oc3ccccc3)cc2c1=O | 81.5 ± 6.72 µM |
| O=C(NCc1ccc(C(F)(F)F)cc1)c1cn(Cc2ccc(F)cc2)c2ccc(Oc3ccccc3)cc2c1=O | 36.4 ± 3.61 µM |
| O=C(NCc1ccc(F)cc1)c1cn(Cc2ccc(C(F)(F)F)cc2)c2ccc(Oc3ccccc3)cc2c1=O | > 100 µM |
| O=C(NCc1ccc(O)cc1)c1cn(Cc2ccc(F)cc2)c2ccc(Oc3ccccc3)cc2c1=O | 33.6 ± 4.11 µM |
| O=C(NCc1ccc(Cl)cc1)c1cn(Cc2ccc(Cl)cc2)c2ccc(Oc3ccccc3)cc2c1=O | 11.2 ± 0.21 µM |

Single results of other studies
| SMILES | tested on | assay | test system | conditions | quantity | result |
| --- | --- | --- | --- | --- | --- | --- |
| O=c1nc(NO)ccn1[C@@H]1O[C@H](CO)[C@@H](O)[C@H]1O | MRC-5 |  |  |  | IC50 | > 10 µM |
| O=C(Nc1cc(-c2ccc(Cl)cc2)[nH]n1)C1CCCCC1 | PLK1 (Homo sapiens, UniProt P53350) | enzyme activity |  | 10 µM | remaining activity | 90% |
| Cc1c2c(c(O)c3c(O)c(NC(=O)c4ccccc4[N+](=O)[O-])ccc13)C(=O)[C@]1(O)C(=O)C(C(N)=O)=C(O)[C@@H](N(C)C)[C@@H]1C2 | Flavin-dependent monooxygenase (tet(50), Unknown prokaryotic organism, UniProt A0A059WYP6) |  |  |  | IC50 | > 1000 µM |
| Cc1cn([C@H]2C[C@H](N=[N+]=[N-])[C@@H](CO)O2)c(=O)[nH]c1=O | HIV-1 | viral replication, multicycle luciferase | MT4, NL4-3 NanoLuc-sec reporter |  | IC50 | 0.017 ± 0.0046 µM |
| O=C(/C=C/c1nccs1)Nc1ncccn1 | Candida albicans |  |  | concentration not given | antifungal activity | inactive |

A few entries again (single results of other studies):
| SMILES | tested on | assay | test system | conditions | quantity | result |
| --- | --- | --- | --- | --- | --- | --- |
| Cc1cn([C@H]2C[C@H](N=[N+]=[N-])[C@@H](CO)O2)c(=O)[nH]c1=O | HIV-1 | viral replication, multicycle luciferase | MT4, NL4-3 NanoLuc-sec reporter |  | IC50 | 0.017 ± 0.0046 µM |
| Cc1c2c(c(O)c3c(O)c(NC(=O)c4ccccc4[N+](=O)[O-])ccc13)C(=O)[C@]1(O)C(=O)C(C(N)=O)=C(O)[C@@H](N(C)C)[C@@H]1C2 | Flavin-dependent monooxygenase (tet(50), Unknown prokaryotic organism, UniProt A0A059WYP6) |  |  |  | IC50 | > 1000 µM |
